Measurements of several laboratories.
Numbered parts are unrelated; each lists some results of a single study.

Study 1
Target: Histone acetyltransferase KAT6A, winged helix 1, GST fusion (KAT6A, Homo sapiens, UniProt Q92794, residues 1-85)
Method: protein binding microarray
Molecule type: double-stranded DNA, one strand shown
Medium: in vitro
Concentration: not given
Setting: 8-mer, flanks averaged, mean of 2 arrays, mostly near background
Reference: not given
Direction: higher = stronger binding
Target sequence (chain): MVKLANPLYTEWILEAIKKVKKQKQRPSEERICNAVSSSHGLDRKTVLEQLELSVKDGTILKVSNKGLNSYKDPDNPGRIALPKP
Oligonucleotide	E-score
AACTAAAT	-0.15
TCCAGTAA	-0.102
AGTTTGAA	0.0321
ATAATAAG	-0.132
ATGATTAG	0.0196

Study 2
Target: Fragile X messenger ribonucleoprotein 1, C-terminal low-complexity region (Fmr1, Mus musculus, UniProt P35922)
Method: RNA Bind-n-Seq
Molecule type: RNA
Medium: in vitro
Concentration: 200 nM
Setting: whole 134-nt RNA, ends assumed
Together with: 150 mM LiCl
Reference: input library
Direction: higher = stronger binding
Each molecule: 7-deaza-guanosine replaces G
Oligonucleotide	log2 enrichment
GGGAGUUCUACAGUCCGACGAUCAGUCCUGUGCUACACAUCGUAUGUACCGAAUCGGGGCCCCGGGGCCCCGGCCCCGGGGAAAGUAUUAUGUUACGCCGUUCGGAUCUGCACUGGAAUUCUCGGGUGUCAAGG	-2.38
GGGAGUUCUACAGUCCGACGAUCAGUCCUGUGCUACACAUCGUAUGUACCGAAUCGGUUUGGUUUUUUUGGAAAAAAAGGAAAGUAUUAUGUUACGCCGUUCGGAUCUGCACUUGGAAUUCUCGGGUGUCAAGG	-2.6
GGGAGUUCUACAGUCCGACGAUCAGUCCUGUGCUACACAUCGUAUGUACCGAAUCGGGGAAAGGGGAAAAAGGGGUGGGGAAAGUAUUAUGUUACGCCGUUCGGAUCUGCACUUGGAAUUCUCGGGUGUCAAGG	-0.042
GGGAGUUCUACAGUCCGACGAUCAGUCCUGUGCUACACAUCGUAUGUACCGAAUCGGAAAAAAAGGUUUGGUUUUUUUGGAAAGUAUUAUGUUACGCCGUUCGGAUCUGCACUUGGAAUUCUCGGGUGUCAAGG	-3.42

Study 3
Target: TAR DNA-binding protein 43, full length, His tag (TARDBP, Homo sapiens, UniProt Q13148, residues 1-414)
Method: RNA Bind-n-Seq
Molecule type: RNA
Medium: in vitro
Concentration: 20 nM
Setting: 6-mer, flanks averaged, single round
Together with: 150 mM KCl
Reference: input library
Direction: higher = stronger binding
Oligonucleotide	6-mer enrichment (R)
CCUCCA	0.596
GGGAUG	4.06
CAACUA	0.61
ACUAGC	0.668
GCUGCU	0.818

Single results of other studies
Substance	target	test	system	conditions	how to read	measurement	value
PhoQ, residues 284 288 289 292 302 303 SMMNNA	PhoP, residues 12 14 15 18 19 LHSVQ (Escherichia coli, UniProt P23836)	Sort-seq, refers to: YFP reporter	E. coli	PhoQ-PhoP variant library, together with: 10 µM Mg2+	reference: high Mg2+ state, higher = stronger signaling	fold induction	10.7

Some of these lines once more (study 3):
Oligonucleotide	6-mer enrichment (R)
ACUAGC	0.668
GCUGCU	0.818
